Assay results from different studies.
Each numbered part is a random draw from the data of one study; scales do not carry over between parts. Positions count from the first letter of the parent shown.
UniProt Q92772, sequence (whole entry, looked up): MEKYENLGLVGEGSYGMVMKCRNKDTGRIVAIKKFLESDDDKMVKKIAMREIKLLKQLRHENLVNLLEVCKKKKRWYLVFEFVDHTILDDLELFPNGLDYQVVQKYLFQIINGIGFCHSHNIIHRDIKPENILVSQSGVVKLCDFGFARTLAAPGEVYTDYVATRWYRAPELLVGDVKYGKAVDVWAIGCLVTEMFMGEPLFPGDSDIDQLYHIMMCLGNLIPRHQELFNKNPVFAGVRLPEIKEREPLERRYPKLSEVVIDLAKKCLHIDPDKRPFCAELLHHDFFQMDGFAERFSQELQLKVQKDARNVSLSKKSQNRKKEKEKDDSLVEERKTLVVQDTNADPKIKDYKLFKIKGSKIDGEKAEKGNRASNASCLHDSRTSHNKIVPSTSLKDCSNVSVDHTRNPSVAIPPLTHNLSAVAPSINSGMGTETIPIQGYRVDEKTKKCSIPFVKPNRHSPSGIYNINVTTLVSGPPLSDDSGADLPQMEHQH
UniProt P10721, sequence (whole entry, unmodified, looked up): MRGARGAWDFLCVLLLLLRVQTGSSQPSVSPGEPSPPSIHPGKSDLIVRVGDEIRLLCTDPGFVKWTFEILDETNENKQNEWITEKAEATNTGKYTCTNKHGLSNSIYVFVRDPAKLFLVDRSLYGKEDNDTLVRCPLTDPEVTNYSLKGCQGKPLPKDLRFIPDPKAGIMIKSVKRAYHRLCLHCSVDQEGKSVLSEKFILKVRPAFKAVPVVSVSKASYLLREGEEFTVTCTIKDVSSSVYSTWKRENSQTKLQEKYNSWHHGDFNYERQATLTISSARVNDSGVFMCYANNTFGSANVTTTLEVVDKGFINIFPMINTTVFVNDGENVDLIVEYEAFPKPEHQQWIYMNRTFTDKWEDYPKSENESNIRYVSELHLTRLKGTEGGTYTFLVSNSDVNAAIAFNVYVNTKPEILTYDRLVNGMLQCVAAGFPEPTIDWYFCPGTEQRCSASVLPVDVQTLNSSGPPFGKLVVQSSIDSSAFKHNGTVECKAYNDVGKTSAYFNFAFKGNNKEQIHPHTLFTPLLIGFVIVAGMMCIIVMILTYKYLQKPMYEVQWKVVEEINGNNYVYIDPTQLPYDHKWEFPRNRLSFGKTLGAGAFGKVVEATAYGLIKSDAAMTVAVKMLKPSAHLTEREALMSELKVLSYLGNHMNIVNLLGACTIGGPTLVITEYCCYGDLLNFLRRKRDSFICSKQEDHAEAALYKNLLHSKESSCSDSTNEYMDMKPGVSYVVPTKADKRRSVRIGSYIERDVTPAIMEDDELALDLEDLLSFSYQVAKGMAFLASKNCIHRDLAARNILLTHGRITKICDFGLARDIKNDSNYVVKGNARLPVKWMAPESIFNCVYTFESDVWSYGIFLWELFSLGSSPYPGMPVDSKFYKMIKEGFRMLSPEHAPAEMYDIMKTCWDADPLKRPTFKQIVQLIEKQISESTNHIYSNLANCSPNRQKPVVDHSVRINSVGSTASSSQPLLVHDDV
UniProt Q96Q40, sequence (whole entry, looked up): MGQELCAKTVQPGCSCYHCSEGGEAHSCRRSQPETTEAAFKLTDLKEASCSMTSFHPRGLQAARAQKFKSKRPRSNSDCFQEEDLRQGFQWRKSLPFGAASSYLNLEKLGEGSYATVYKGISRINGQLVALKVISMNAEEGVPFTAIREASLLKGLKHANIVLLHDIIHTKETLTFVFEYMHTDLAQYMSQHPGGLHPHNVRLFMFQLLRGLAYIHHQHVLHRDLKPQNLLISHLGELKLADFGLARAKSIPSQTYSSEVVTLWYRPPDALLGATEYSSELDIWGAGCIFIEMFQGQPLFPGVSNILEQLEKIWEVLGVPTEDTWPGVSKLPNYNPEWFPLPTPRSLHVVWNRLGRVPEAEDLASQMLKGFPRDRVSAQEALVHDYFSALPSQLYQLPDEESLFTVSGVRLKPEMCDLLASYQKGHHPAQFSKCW
UniProt P00519, sequence (whole entry, looked up): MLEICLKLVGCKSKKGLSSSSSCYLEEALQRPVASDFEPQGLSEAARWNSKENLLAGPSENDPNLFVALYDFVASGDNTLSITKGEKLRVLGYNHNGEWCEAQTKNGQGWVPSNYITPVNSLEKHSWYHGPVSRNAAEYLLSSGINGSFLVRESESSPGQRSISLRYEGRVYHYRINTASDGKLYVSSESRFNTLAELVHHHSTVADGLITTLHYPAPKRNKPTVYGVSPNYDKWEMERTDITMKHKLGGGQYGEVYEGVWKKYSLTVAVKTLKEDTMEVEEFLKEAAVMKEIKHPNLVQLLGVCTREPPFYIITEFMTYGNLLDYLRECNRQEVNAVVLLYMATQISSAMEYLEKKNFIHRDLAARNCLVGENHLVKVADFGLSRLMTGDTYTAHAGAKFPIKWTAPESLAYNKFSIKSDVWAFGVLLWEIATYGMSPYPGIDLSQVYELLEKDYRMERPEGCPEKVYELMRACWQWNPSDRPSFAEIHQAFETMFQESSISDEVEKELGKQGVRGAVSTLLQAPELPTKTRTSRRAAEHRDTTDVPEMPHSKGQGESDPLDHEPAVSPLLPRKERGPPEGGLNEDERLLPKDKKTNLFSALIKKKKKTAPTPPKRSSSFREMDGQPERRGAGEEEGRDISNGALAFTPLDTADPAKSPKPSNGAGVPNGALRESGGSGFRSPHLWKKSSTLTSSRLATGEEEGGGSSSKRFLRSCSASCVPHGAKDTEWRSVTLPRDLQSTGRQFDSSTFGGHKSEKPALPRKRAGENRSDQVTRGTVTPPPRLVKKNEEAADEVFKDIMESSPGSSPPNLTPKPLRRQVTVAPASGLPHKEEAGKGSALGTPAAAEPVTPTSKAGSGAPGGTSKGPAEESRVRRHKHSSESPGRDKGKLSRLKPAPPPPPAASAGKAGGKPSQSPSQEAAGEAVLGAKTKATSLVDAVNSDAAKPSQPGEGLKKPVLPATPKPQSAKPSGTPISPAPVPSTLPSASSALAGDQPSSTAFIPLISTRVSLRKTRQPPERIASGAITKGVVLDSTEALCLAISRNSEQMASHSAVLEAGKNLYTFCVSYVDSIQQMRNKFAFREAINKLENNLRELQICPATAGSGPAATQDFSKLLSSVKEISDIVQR

Series 1 — method: RNA Bind-n-Seq; molecule type: RNA; matrix: in vitro; concentration: 20 nM; setting: 6-mer, flanks averaged, single round; with: 150 mM KCl; reference: input library; direction: higher = stronger binding
Target: TAR DNA-binding protein 43, full length, His tag (TARDBP, Homo sapiens, UniProt Q13148, residues 1-414)
`AGCAUG` — result for “6-mer enrichment (R)”: 0.973.
`UUGACC` — result for “6-mer enrichment (R)”: 0.659.
`CUUUCA` — result for “6-mer enrichment (R)”: 0.55.
For `GACCGC`, “6-mer enrichment (R)” read 0.887.
`CCUACA`: “6-mer enrichment (R)” 0.598.
`UCCGUA` — result for “6-mer enrichment (R)”: 0.598.
`ACACAC` — result for “6-mer enrichment (R)”: 0.667.
`ACGACG` — result for “6-mer enrichment (R)”: 0.928.

Series 2 — effect on: enzyme activity; action: inhibitor; concentration: 0.5 µM; reference: control
Target: Ephrin type-B receptor 1 (EPHB1, Homo sapiens, UniProt P54762)
UniProt P54762, sequence (whole entry, looked up): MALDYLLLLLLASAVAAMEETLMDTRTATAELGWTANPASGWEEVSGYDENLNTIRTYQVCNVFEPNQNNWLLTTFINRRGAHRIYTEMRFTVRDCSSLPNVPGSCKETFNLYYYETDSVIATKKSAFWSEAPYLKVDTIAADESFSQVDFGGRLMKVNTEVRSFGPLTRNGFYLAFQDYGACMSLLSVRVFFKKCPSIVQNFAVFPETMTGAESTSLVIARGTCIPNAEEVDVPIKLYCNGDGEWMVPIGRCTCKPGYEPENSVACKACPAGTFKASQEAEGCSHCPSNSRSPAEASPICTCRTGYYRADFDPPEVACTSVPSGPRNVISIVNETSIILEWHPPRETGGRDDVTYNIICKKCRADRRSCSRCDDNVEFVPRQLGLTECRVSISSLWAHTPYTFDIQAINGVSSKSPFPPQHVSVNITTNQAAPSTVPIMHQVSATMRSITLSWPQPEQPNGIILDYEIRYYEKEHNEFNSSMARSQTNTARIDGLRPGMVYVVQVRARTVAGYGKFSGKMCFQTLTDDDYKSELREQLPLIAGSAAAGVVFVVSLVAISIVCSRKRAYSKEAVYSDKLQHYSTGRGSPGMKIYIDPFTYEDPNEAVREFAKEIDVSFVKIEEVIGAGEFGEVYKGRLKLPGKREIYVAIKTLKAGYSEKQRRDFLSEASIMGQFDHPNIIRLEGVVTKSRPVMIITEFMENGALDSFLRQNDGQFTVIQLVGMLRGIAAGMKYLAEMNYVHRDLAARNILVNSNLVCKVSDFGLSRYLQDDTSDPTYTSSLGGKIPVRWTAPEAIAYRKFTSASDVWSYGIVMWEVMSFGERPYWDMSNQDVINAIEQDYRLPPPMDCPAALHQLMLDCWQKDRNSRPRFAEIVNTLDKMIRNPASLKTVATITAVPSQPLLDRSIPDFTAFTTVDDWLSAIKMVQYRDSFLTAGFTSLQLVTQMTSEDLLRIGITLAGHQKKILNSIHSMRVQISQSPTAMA
`COc1cc2ncnc(Nc3ccc(F)c(Cl)c3)c2cc1OCCCN1CCOCC1` gave a remaining activity of 94.8%.
`COc1ccc(C(=O)Nc2sc3c(c2C(N)=O)CCCC3)cc1OC` gave a remaining activity of 95%.
The remaining activity of `COc1cc2nccc(Oc3ccc(NC(=S)NC(=O)c4ccccc4C)cc3)c2cc1OC` is reported as 98.5%.
With `O=c1c2ccccc2[nH]c(=S)n1CCN1CCC(=C(c2ccc(F)cc2)c2ccc(F)cc2)CC1` the remaining activity was 100%.
`Oc1ccc(-c2nc(-c3ccncc3)c(-c3ccc(F)cc3)[nH]2)cc1` gave a remaining activity of 96.8%.
`O=C(CCCc1ccc(-c2ccccc2F)cc1)Nc1ccc(O)cc1` has a remaining activity of 96.4%.
`O=C(Nc1cccc(Nc2cc(Nc3cccc(C(F)(F)F)c3)ncn2)c1)C1CC1` gave a remaining activity of 100%.
The remaining activity of `Nc1[nH]nc2nc3ccccc3nc12` is reported as 92.3%.
For `COc1ccc(OC)c2c(=S)c3ccccc3[nH]c12`, the remaining activity was 87.1%.
`N#CC(C#N)=C(N)/C(C#N)=C/c1ccc(O)cc1` has a remaining activity of 88.3%.
`COc1ccc(CNC(=O)Nc2ncc([N+](=O)[O-])s2)cc1` has a remaining activity of 102%.
`COc1cc2ncnc(Nc3ccc(Oc4ccccc4)cc3)c2cc1OC` gave a remaining activity of 108%.

Series 3 — target: CREB3L3, bZIP domain (human); method: DHFR protein complementation; matrix: yeast; reference: wild-type JUN-FOS pair; direction: higher = stronger binding
Setting: single substitutions, most at no-binding floor
Parent: JUN, bZIP domain (human); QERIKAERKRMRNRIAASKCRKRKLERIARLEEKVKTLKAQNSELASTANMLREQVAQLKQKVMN; partner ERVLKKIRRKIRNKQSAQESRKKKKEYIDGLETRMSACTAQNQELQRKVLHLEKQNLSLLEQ
With `A57R` the binding fitness was -1.4 natural log.
For `I28A`, the binding fitness was -1.52 natural log.
The binding fitness of `A29D` is reported as -1.5 natural log.
The binding fitness of `Q55D` is reported as -1.52 natural log.
With `T37K` the binding fitness was -1.57 natural log.
With `L52K` the binding fitness was -1.44 natural log.
`E44K` has a binding fitness of -1.42 natural log.
The binding fitness of `N42M` is reported as -1.45 natural log.

Series 4 — method: competition with immobilised ligand; concentration: 1 µM
SMILES: Cc1c(NC(=O)c2cc(C(N)=O)nc3cc(F)ccc23)c(C(F)(F)F)nn1Cc1ccc(C#N)cc1
It gave 100% for remaining binding (CDK15 (Homo sapiens, UniProt Q96Q40); cell-free assay).
For EPHB2 (Homo sapiens, UniProt P29323); cell-free assay: remaining binding read 100%.
It gave 92% for remaining binding (CDKL2 (Homo sapiens, UniProt Q92772); binding).
KIT (Homo sapiens, UniProt P10721, D816H); cell-free assay — remaining binding: 60%.
Tyrosine-protein kinase ABL1, phosphorylated (ABL1, Homo sapiens, UniProt P00519); cell-free assay — remaining binding: 78%.
It gave 91% for remaining binding (CDK2 (Homo sapiens, UniProt P24941); cell-free assay).

A few entries again (series 2):
`O=C(CCCc1ccc(-c2ccccc2F)cc1)Nc1ccc(O)cc1` has a remaining activity of 96.4%.
With `O=c1c2ccccc2[nH]c(=S)n1CCN1CCC(=C(c2ccc(F)cc2)c2ccc(F)cc2)CC1` the remaining activity was 100%.
